Assay results collected from several papers.
Parts stem from different laboratories: compare values within a part only. Changes are numbered by the printed parent chain.

Study 1 — technique: RNA Bind-n-Seq; molecule type: RNA; sample: in vitro; concentration: not given; notes: RNA with constant flanks, ends assumed; relative to: input RNA pool; reading: higher = stronger binding
Target: RING finger protein unkempt homolog, zinc fingers 1-6, GST-SBP tag (UNK, Homo sapiens, UniProt Q9C0B0, residues 30-357)
Target sequence (chain): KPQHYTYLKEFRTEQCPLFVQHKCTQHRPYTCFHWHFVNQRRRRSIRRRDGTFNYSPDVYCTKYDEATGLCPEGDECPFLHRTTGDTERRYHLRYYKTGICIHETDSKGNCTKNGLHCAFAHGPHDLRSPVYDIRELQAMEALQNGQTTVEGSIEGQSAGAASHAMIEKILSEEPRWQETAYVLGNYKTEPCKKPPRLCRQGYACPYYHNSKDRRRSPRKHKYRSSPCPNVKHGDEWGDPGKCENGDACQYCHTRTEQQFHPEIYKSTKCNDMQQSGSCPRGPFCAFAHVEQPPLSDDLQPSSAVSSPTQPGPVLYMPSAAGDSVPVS
Strand	bound/input enrichment [ratio]
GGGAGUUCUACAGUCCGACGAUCUUUAUGUAUAUGAGUACACUGCAGCUGUACAGAUGGUUAUGAGCCAUCGUGGUUGCUGAGAACCGAACUCAAGACCUCUGCUUGCUCAGCCCCGCUCCCUCGCUGUGUCCCAAAGAUUUACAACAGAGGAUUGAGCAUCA	0.223
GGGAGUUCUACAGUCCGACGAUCCUUAUGCCCUCCAGUCUGCAGACCCCUCAGCCCCAGGAGCAGAAUGGGAUUUUAGACUGGCUCCGGAAGCUGCGCUUGCACAAGUAUUACCCUGUCUUUAAACAGCUCACCAUGGAGAAGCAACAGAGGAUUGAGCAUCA	0.197
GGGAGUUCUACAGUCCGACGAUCAAAGAGAAUGGAGAAGUAAAGAUUUUGCUGAAAAGUGGGAAGGAGAAACCAAAAACAAAUACCGAAGACUUACAAAUUAAAAAGGUAAAGAAGAAAAAGAAAAAGAAACACAAAGAGAAUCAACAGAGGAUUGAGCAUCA	0.625
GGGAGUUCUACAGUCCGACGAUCAUUAAUUGGACAGAACAGAACUACCCUCAAGGGGGGAAAGAGAGUAACAUGUCAGCGUCCGUGGAGAGAGCGAUAGAAGCACUCCAAGGAGAGACGCGCUAUUAUAAUGACCCCCGCUUUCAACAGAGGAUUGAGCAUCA	0.0949
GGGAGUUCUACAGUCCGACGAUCCCUCUUUUCCAGUCUCAUGUUGAAGAUCUUUAUGUAGAAGGACUUCCUGAAGGAAUUCCUUUCCGAAGGCCAUCUACUUACGGAAUUCCUCGCCUGGAGAGGAUAUUACUUGCAAAGGAACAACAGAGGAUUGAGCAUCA	0.198
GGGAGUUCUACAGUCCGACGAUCUCUGCUCGGAAGAUGCGUCUGGGAGAUGCUGUUGAACAGGGUGUGAUUAACAACUCAGUAUCCGGCUAUUUUAUUGGCCGCAUCUACCUCUACCUCACGAAGGUUGGAAUAUCUCCUGAUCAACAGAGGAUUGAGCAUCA	0.0711
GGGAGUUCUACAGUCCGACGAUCACUUGUUGUGUGUGUGCGUGUGUGUGUGUGUGUGUGUGUGUGUGUGUGUGUUCUGUACCCACCCGGAUUUGUUUAGGUGCCCAUUGCAUCUUUUUGUGCUAUGGAGUUGUUUACAUUAAGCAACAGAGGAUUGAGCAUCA	1.43
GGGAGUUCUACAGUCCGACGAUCCAUAAUCACAAGUUUGAAAUAUCCUAUUUCUUAAAUAAAAAGGAGAACGUUAAUUACAUUCCGCAGACAUUUUUACAUUCAAAACUGGAUAUUGAAAUACGUGGAACAAUUGCUUUAAAUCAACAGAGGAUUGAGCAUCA	0.146

Study 2 — target: CCND1, cyclin fold, Cln2 fusion (human); technique: yeast growth competition, sequencing; sample: yeast; notes: weak parent motif; relative to: not given; reading: higher = stronger binding
Starting sequence: CDC25A docking peptide (human); PPHRRRLLFACSP; partner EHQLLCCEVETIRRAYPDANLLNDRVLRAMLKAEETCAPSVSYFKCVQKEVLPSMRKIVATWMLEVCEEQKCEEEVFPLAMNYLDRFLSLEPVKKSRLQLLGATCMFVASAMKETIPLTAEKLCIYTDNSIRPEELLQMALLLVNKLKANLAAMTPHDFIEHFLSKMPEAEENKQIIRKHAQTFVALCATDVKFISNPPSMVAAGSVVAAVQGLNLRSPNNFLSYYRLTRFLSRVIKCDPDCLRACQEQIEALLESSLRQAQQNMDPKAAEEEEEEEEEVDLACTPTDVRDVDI
Substitution	normalised enrichment score
PPHRRRLLYACSP [F9Y]	-0.106
PPHRRRLLPACSP [F9P]	-0.402
PPHPRRLLFACSP [R4P]	-0.0169
PPHKRRLLFACSP [R4K]	-0.245
PKHRRRLLFACSP [P2K]	0.214
PPHRRRLLFACMP [S12M]	0.338
PPHRRALLFACSP [R6A]	-0.0705
PPHRRRLLFACNP [S12N]	0.628
PPHRRRLLFAVSP [C11V]	0.149
PPYRRRLLFACSP [H3Y]	0.279
PPHRVRLLFACSP [R5V]	0.578
PPHRRRELFACSP [L7E]	-0.122
PPHSRRLLFACSP [R4S]	-0.369
PPHRRRLLFACTP [S12T]	0.253

Study 3 — technique: RNA Bind-n-Seq; molecule type: RNA; sample: in vitro; concentration: 365 nM; relative to: no-protein control; reading: higher = stronger binding
Target: RNA binding protein fox-1 homolog 2, RRM domain, GST-SBP tag (RBFOX2, Homo sapiens, UniProt O43251-10, residues 100-194)
Notes: natural RNA segment, single round, ends assumed
Residues (chain): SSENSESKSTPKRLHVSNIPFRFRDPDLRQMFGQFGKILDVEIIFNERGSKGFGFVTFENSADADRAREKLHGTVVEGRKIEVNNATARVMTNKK
Strand	RBNS enrichment (R)
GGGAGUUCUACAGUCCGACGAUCCCCCUUUACUUUUUGAAGCCAUACAAUGGAUGUCUAUAUGUUGCCUUUUUGAAGAUUAGGUGGUUUUGCUCUUUAACAUUUUUGUGACUUUGGUUUAUUUUCUUCCCAUGUGGAAUUCUCGGGUGCCAA	0.82
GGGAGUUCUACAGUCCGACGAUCGGUGAUUUUCCAGUUGUAAAUGUCAUGCAGCAUUUGAAGGGACUGUGUUUUCUUAAAAAAAAAUCACAGUUACUUCUAAACCAGAUUUCAUUUCUUUUAUUGUUUUAUGUUGGAAUUCUCGGGUGCCAA	0.331
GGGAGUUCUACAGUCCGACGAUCGGCUCCGCCCCUGCAGCCCACACAGCACAACGUCUUACCGUGCCUAUUACCAAGCGAGUGUUUGUAACCAUGUAGUUUUGGAACCCACUGCAAAAUUUUCUACUGGCCAAUGGAAUUCUCGGGUGCCAA	0.474
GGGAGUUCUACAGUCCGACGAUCCUCCUGAUCCUGACCUCUGCAGCCUCUUUAACUGCCCCUCCUAUGGCCCCUGCCCUUCUCUUUCUCCCAGAUGGAUCCUUCCAGCAGAGAAAUAAAGCCUUAUCCAUUACUGGAAUUCUCGGGUGCCAA	0.379
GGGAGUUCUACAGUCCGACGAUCGAACAAGUUUGUUUUGCCUGAUACAGUAUUAUAAUUGGUUUUGUAACUUUGAAGUCUUGUAUGAUUUAAUUAUGUUUAAUGAGUUAGAAUGGUUUGCUUUGUAUUACAGAUGGAAUUCUCGGGUGCCAA	1.66
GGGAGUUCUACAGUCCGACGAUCCUUACCUCUCCCAAGGAGGGUACACAACUAGCACCAUUCUUGAUGUCCAGGGAAGAAGCCACCUCAAGACAUAUGAGGGGUGCCCUGGGCUAAUGUUAGGGCUUAAUUUUUGGAAUUCUCGGGUGCCAA	0.318
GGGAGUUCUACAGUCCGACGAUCAUUAUUUCAGAGGUCACUGAAGACUGUGAUUACAUGCACCUGCCUUAGAAGGUAGGAUUUUCUUCCCAGGGACCUCCUAUCACCCUACCCUGCUUCUUGAGGUCCCUGGAUGGAAUUCUCGGGUGCCAA	0.688
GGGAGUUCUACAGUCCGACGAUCUAGUUCUGUUAUUUAUACUUGGUGUUGCUUGUCAUGGACACCGGUGAACAUGCCGUAACUCUGUGACUGCAUUGUAAGUGCAGUGGGGGUAAGCAGUCCUGUGAGUGGCGUGGAAUUCUCGGGUGCCAA	2.77
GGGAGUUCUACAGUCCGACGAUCUCCAAACUGCCUCUGGCCACUCAGAAGAUGAGGUUGGCUUGGCACUUCACUGUCCCUGAUAUCUGGAGGUGAGAUGGCAGAGAGGGGCACCAGUGGAGCCAGGAUUGGGGUGGAAUUCUCGGGUGCCAA	0.365
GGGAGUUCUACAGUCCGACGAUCAGUAUCAGUUGUAAGCACAGAUGAUGAUCUGGCUGAGUUCUGAACAAAUCUUGGUCUAUGAGGUCUACACCAAUAACACCCUACUCUGGAAUGGUAACAGAGCCAGCGCUUGGAAUUCUCGGGUGCCAA	0.433
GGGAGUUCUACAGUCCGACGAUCGUUUUAGCUGUGCAUGUCAUAUCCACAAAGACUUUUAGCAGGUGAACUGUUCCAAGACUGACACAAGGAUGUUUCAAACUUGCCUCUGUCUGUAGAAAAUGUUAAAAAUAUGGAAUUCUCGGGUGCCAA	2.83
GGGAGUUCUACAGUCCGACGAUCUCUUUACAUAUUUAUAUGUAUGUUUUAAGUAGUCCUCCUGUAUCUAUUGUAUAUUUUUUUCUUAAUGUUUAAGGAAAUGUGCAGGAUACUACAUGCUUUUUGUAUCACACUGGAAUUCUCGGGUGCCAA	0.602

Study 4 — technique: universal PBM; molecule type: double-stranded DNA, one strand shown; sample: in vitro; concentration: 600 nM; reading: higher = stronger binding
Target: Sal-like protein 4, full length isoform A (SALL4, Homo sapiens, UniProt Q9UJQ4, residues 1-1053)
Sequence of UniProt Q9UJQ4 (whole entry, looked up): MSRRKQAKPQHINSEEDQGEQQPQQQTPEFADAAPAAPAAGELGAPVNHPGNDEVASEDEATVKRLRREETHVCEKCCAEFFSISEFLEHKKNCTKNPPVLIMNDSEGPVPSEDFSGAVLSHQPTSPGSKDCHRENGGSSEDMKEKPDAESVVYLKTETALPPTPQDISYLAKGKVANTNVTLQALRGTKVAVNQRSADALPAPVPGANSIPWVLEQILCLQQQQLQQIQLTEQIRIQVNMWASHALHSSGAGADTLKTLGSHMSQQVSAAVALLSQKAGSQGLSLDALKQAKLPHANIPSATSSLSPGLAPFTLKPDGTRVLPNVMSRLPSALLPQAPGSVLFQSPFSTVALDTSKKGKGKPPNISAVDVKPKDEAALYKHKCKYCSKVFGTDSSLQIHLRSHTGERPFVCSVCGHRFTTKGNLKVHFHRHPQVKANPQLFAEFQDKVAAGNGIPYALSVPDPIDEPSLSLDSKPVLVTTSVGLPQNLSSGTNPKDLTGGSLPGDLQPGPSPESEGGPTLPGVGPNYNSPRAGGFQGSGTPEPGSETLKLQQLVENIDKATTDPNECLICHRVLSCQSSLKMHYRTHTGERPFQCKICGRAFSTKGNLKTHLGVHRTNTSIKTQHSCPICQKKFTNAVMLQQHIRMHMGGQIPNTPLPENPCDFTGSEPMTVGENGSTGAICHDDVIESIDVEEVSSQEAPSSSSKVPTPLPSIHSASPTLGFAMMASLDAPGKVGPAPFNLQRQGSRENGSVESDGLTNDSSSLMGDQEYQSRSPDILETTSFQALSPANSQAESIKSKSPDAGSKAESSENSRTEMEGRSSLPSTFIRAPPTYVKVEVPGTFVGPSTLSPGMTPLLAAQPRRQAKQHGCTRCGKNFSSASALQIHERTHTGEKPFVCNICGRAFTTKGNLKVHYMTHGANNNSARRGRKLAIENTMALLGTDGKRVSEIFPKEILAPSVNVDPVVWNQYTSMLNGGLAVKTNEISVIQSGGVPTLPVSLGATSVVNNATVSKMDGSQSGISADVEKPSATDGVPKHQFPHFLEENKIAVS
Notes: 8-mer, flanks averaged, mean of replicates
Strand	E-score
ACCATACG	0.0448
ATTAGCGC	0.115
CCGCTGCA	-0.186
AATCTTCG	0.249
GCAGCGAC	-0.367
GCTGCTCC	-0.344
ATGGTCAA	0.164
ATAGGTAA	0.237
CGTGGTTA	-0.0573
CAACTATG	0.136
GCCAAGCC	-0.267
AATAAAGT	0.32
ACTAACAT	0.182
CAGCGTAC	-0.199
AATACGCT	0.175
CTATCCGC	-0.119
CTACAATC	0.2
CGAATTTC	0.202
AGCCGCAA	-0.203
CCTGGAAA	-0.0258
CGAAAAGC	-0.106
CGAATCCG	-0.257
GGGAACAA	-0.0004

Further values, each from its own experiment
Substance	target	test	system	setting	scale	endpoint	value
PhoQ, residues 284 288 289 292 302 303 SNSSNI	PhoP, residues 12 14 15 18 19 IQFRS (Escherichia coli, UniProt P23836)	Sort-seq, refers to: YFP reporter	E. coli	PhoQ-PhoP variant library, with: 10 µM Mg2+	relative to: high Mg2+ state, higher = stronger signaling	fold induction	1.55

Excerpt of the above (study 2):
Substitution	normalised enrichment score
PKHRRRLLFACSP [P2K]	0.214
PPHRRRLLFACMP [S12M]	0.338
PPHRRALLFACSP [R6A]	-0.0705
PPHRRRLLFACNP [S12N]	0.628
PPHRRRLLFAVSP [C11V]	0.149
PPYRRRLLFACSP [H3Y]	0.279
PPHRVRLLFACSP [R5V]	0.578
PPHRRRELFACSP [L7E]	-0.122
PPHSRRLLFACSP [R4S]	-0.369
